Assay results collected from several papers.
± gives the spread as reported.
Organism: Trypanosoma brucei

SMILES | test | system | conditions | EC50
CC(Nc1c(-c2c(F)cc(OCCCN(C)C)cc2F)c(Cl)nc2ncnn12)C(C)(C)C (stereo not drawn) | parasite growth, SYBR Green |  | 72 h | 0.0389 µM
COc1cc2c(cc1-c1c(C)noc1C)ncc1[nH]c(=O)n([C@H](C)c3ccccn3)c12 | growth rate inhibition, flow cytometry | bloodstream form | 2 days | 31.7 ± 7.5 µM
COC(=O)c1[nH]c(C(=O)OC)c2c1-c1c[nH]c3ccc(Cl)c(c13)[C@]21C=Nc2ccc(Cl)cc21 | parasite growth, ATP luminescence |  | 48 h | 11 µM
Clc1cc(Cl)cc(CNCCCNc2nc3ccccc3[nH]2)c1 | parasite growth |  |  | 0.016 µM
CN(C)CCCOc1cc(F)c(-c2c(Cl)nc3ncnn3c2NCC2(C)N=N2)c(F)c1 | parasite growth, SYBR Green |  | 72 h | 0.0554 µM
CC(=O)N[C@@H]1[C@@H](OC(C)=O)[C@H](OC(C)=O)[C@@H](COC(C)=O)O[C@H]1[Se][Se][C@@H]1O[C@H](COC(C)=O)[C@@H](OC(C)=O)[C@H](OC(C)=O)[C@H]1NC(C)=O | parasite growth, flow cytometry |  | 24 h, blood stage | ~5 µM
C[C@@H](Nc1c(-c2c(F)cc(OCCCN(C)C)cc2F)c(Cl)nc2ncnn12)C1CC1 | parasite growth, SYBR Green |  | 72 h | 0.0878 µM
CC(=O)OC[C@H]1O[C@@H]([Se]C(=O)c2ccc([N+](=O)[O-])cc2)[C@H](OC(C)=O)[C@@H](OC(C)=O)[C@@H]1OC(C)=O | parasite growth |  | 24 h | 0.37 µM
Cc1ccc(-c2cc(C(=O)NCCCn3ccnc3)c3cc(Br)ccc3n2)o1 | parasite growth, resazurin |  | 73 h | 16.5 µM
CC(=O)OC[C@H]1O[C@@H]([Se]Sc2ccccc2)[C@H](OC(C)=O)[C@@H](OC(C)=O)[C@@H]1OC(C)=O | parasite growth |  | 24 h | 0.77 µM
C[C@@H](Nc1c(-c2c(F)cc(C#CCCN)cc2F)c(Cl)nc2ncnn12)C(C)(C)C | parasite growth, SYBR Green |  | 72 h | 0.24 µM
CCn1nc(-c2cc(Br)cs2)nc2c(=O)n(C)c(=O)nc1-2 | parasite growth, resazurin |  | 73 h | 3.4 µM
CC1CC(=O)c2c(OCC(=O)N3CCC(C(=O)Nc4ccccc4)CC3)ccc(Cl)c21 (stereo not drawn) | cell viability, flow cytometry, PI | bloodstream form | 24 h | > 25 µM
COC(=O)c1[nH]c(C(=O)OC)c2c1c1c3cc(Cl)ccc3[nH]c1c1[nH]c3ccc(Cl)cc3c12 | parasite growth, ATP luminescence |  | 48 h | 0.37 µM
CC(C)[C@@H](C)Nc1c(-c2c(F)cc(C#CCCN)cc2F)c(Cl)nc2ncnn12 | parasite growth, SYBR Green |  | 72 h | 0.191 µM
COC(=O)c1[nH]c(C(=O)OC)c2c1-c1c[nH]c3cccc(c13)C21CN(C)c2ccccc21 (racemic) | parasite growth, ATP luminescence |  | 48 h | 7.1 µM
CC(=O)OC[C@H]1O[C@@H]([Se][Se][C@@H]2O[C@H](COC(C)=O)[C@H](OC(C)=O)[C@H](OC(C)=O)[C@H]2OC(C)=O)[C@H](OC(C)=O)[C@@H](OC(C)=O)[C@H]1OC(C)=O | parasite growth, flow cytometry |  | 24 h, blood stage | 1.49 µM
COc1cccc(C(=O)c2sc(Nc3ccc(F)cc3)nc2N)c1 | parasite growth | bloodstream form | 69 h | 0.13 µM
C[C@@H](Nc1c(-c2c(F)cc(C#CCCN(C)C)cc2F)c(Cl)nc2ncnn12)C(C)(C)C | parasite growth, SYBR Green |  | 72 h | 0.238 µM
CC(=O)N[C@@H]1[C@@H](OC(C)=O)[C@H](OC(C)=O)[C@@H](COC(C)=O)O[C@H]1[Se]Cc1ccc([N+](=O)[O-])cc1 | parasite growth |  | 24 h | 7.7 µM
CNC(=O)c1c(F)cccc1Nc1nc(Nc2cc3c(cc2OC)CCN3C(=O)CN(C)C)nc2[nH]ccc12 | parasite growth |  |  | 2 µM
CCOc1cccc(Nc2nc(N)c(C(=O)c3ccc(OC)cc3)s2)c1 | cell proliferation, resazurin | bloodstream form | 73 h | 4.1 µM
Cc1cc(NC(=O)C2CCN(C(=O)Cc3c(C)[nH]c4ccccc34)CC2)no1 | cell viability, flow cytometry, PI | bloodstream form | 24 h | > 25 µM
CNCCCOc1cc(F)c(-c2c(Cl)nc3ncnn3c2N[C@@H](C)C(F)(F)F)c(F)c1 | parasite growth, SYBR Green |  | 72 h | 0.0813 µM
CCn1nc(-c2cc(Br)ccc2F)nc2c(=O)n(C)c(=O)nc1-2 | parasite growth, resazurin |  | 73 h | 8.1 µM
CN(C)CCCOc1cc(F)c(-c2c(Cl)nc3ncnn3c2NCC(C)(C)C)c(F)c1 | parasite growth, SYBR Green |  | 72 h | 0.106 µM
Clc1ccc(C(c2ccc(Cl)cc2)n2cc[n+](CC(OCc3ccc(Cl)cc3Cl)c3ccc(Cl)cc3Cl)c2)cc1 (stereo not drawn) | cell viability, flow cytometry, PI | bloodstream form | 24 h | 0.6 µM
COc1ccc(Nc2nc(N)c(C(C)=O)s2)cc1 | cell proliferation, resazurin | bloodstream form | 73 h | 13 µM
CC(=O)OC[C@H]1O[C@@H]([Se]C(C)=O)[C@H](OC(C)=O)[C@@H](OC(C)=O)[C@@H]1OC(C)=O | parasite growth |  | 24 h | 0.43 µM
CCOc1ccccc1-c1nc(CC(=O)NCc2cn3ccccc3n2)cs1 | cell viability, flow cytometry, PI | bloodstream form | 24 h | > 25 µM
